{"data": "Published values collected from several papers", "note": "Lines come from different studies, so protocols differ."}
{"SMILES": "COc1c(N2C[C@@H]3CCCN[C@@H]3C2)c(F)cc2c(=O)c(C(=O)O)cn(C3CC3)c12", "system": "healthy volunteers", "setting": "400 mg", "measurement": "subjects with upper abdominal pain", "result": "1%"}
{"SMILES": "O=C(Nc1cnccc1Cl)N1CCN(Cc2ccc3c(c2)OC(F)(F)O3)CC1", "assay": "multiple ascending dose", "system": "young men", "setting": "75 mg, at least 1 treatment-emergent event", "measurement": "subjects with adverse events", "result": "83.3%"}
{"SMILES": "CC[C@H](C)[C@H](NC(=O)[C@H](Cc1ccccc1)NC(=O)[C@H](CCC(=O)O)NC(=O)[C@H](CCCCNC(=O)COCCOCCNC(=O)COCCOCCNC(=O)CC[C@H](NC(=O)CCCCCCCCCCCCCCCCC(=O)O)C(=O)O)NC(=O)[C@H](C)NC(=O)[C@H](C)NC(=O)[C@H](CCC(N)=O)NC(=O)CNC(=O)[C@H](CCC(=O)O)NC(=O)[C@H](CC(C)C)NC(=O)[C@H](Cc1ccc(O)cc1)NC(=O)[C@H](CO)NC(=O)[C@H](CO)NC(=O)[C@@H](NC(=O)[C@H](CC(=O)O)NC(=O)[C@H](CO)NC(=O)[C@@H](NC(=O)[C@H](Cc1ccccc1)NC(=O)[C@@H](NC(=O)CNC(=O)[C@H](CCC(=O)O)NC(=O)C(C)(C)NC(=O)[C@@H](N)Cc1cnc[nH]1)[C@@H](C)O)[C@@H](C)O)C(C)C)C(=O)N[C@@H](C)C(=O)N[C@@H](Cc1c[nH]c2ccccc12)C(=O)N[C@@H](CC(C)C)C(=O)N[C@H](C(=O)N[C@@H](CCCNC(=N)N)C(=O)NCC(=O)N[C@@H](CCCNC(=N)N)C(=O)NCC(=O)O)C(C)C", "system": "Japanese subjects", "setting": "0.5 mg, mild adverse events", "measurement": "subjects with adverse events", "result": "62.5%"}
{"SMILES": "C[C@H]1CNCCCN1S(=O)(=O)c1cccc2cncc(F)c12", "system": "healthy adult men", "setting": "ocular, 1 drop per eye twice daily, 8 days, adverse event", "measurement": "subjects with punctate keratitis", "result": "16.7%"}
{"SMILES": "Cc1c(Cl)c(C)[n+]([O-])c(Cl)c1-c1noc(-c2cc(O)c(O)c([N+](=O)[O-])c2)n1", "system": "healthy Chinese subjects", "setting": "oral, 50 mg, 10 days", "measurement": "subjects with any serious TEAE", "result": "0%"}
{"SMILES": "C=CC(=O)NC1CCN(c2ncc3ncnc(Nc4ccc(Oc5ccc6c(c5)ncn6C)c(C)c4)c3n2)CC1", "system": "healthy male volunteers", "setting": "intravenous then oral, dose not given", "measurement": "subjects with drug-related diarrhoea", "result": "14%"}
{"SMILES": "NCCONC(=O)[C@@H]1CC[C@@H]2CN1C(=O)N2OS(=O)(=O)O", "system": "healthy Chinese male subjects", "setting": "intravenous, 2 g", "measurement": "subjects with TEAEs", "result": "62.5%"}
{"SMILES": "O=C(O)CCC(=O)O.[2H]C([2H])([2H])Oc1cc(C)c2[nH]ccc2c1CN1CC[C@@H](C2CC2)C[C@H]1c1ccc(C(=O)O)cc1", "system": "healthy Chinese subjects", "setting": "dose not given, multiple ascending dose pooled", "measurement": "subjects with drug-related TEAEs", "result": "32.5%"}
{"note": "Some of these lines once more:"}
{"SMILES": "NCCONC(=O)[C@@H]1CC[C@@H]2CN1C(=O)N2OS(=O)(=O)O", "system": "healthy Chinese male subjects", "setting": "intravenous, 2 g", "measurement": "subjects with TEAEs", "result": "62.5%"}
